Results gathered from unrelated publications.
Parts stem from different laboratories: compare values within a part only. Positions count from the first letter of the parent shown.

Series 1 — technique: universal PBM; form: double-stranded DNA, one strand shown; sample: in vitro; concentration: not given; direction: higher = stronger binding
Target: Sal-like protein 4, full length isoform B (SALL4, Homo sapiens, UniProt Q9UJQ4-2, residues 1-616)
Notes: 8-mer, flanks averaged, mean of replicates
Sequence	E-score
CCCGTCAG	-0.328
CGAAATCG	-0.0373
AACCCGGT	-0.335
AGTTTCTC	-0.0729
CGGGACTC	-0.328
AAATGCGA	0.163
GACACTAC	-0.0398
AAAGTAGT	0.0575
CGGGATTC	-0.239
AAGCACCC	-0.255
GAGAAATA	0.226

Series 2 — technique: RNA Bind-n-Seq; form: RNA; sample: in vitro; concentration: 365 nM; baseline: no-protein control; direction: higher = stronger binding
Target: RNA binding protein fox-1 homolog 2, RRM domain, GST-SBP tag (RBFOX2, Homo sapiens, UniProt O43251-10, residues 100-194)
Notes: natural RNA segment, single round, ends assumed
Target sequence (chain): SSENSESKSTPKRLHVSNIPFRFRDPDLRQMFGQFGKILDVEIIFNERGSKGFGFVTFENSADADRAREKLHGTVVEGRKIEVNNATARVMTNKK
Sequence	RBNS enrichment (R)
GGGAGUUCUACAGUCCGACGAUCUGUGGGUUUAUCCAAGAUGAGGAAGAUUUCACCUGCUGUUUAAUAGACUUGGGGCCAUGUGCCUCCCCACACAUGGGCAAGGACAGGUGGAAUGUCGGGACCACACUGUGUGGAAUUCUCGGGUGCCAA	0.398
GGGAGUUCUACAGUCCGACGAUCGCUCCUGCUAAGACAUGGAAACAAGUAUUGGAACCUCCAGAGUGUUUAAAUGGCUAUUGAAAUUUAUAAUGGCCCUUCAAUUCUUACUAUAUGCUUAAUAGUGUGCUAAAUGGAAUUCUCGGGUGCCAA	0.519
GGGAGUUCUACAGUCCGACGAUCGUCCAACAACUCUGUAGAGCUCUCUGCACCCUUACCCCUUUCCACCUUUUGUAUUUAAUUUUAAAGUCAGUGUACUGCAAGGAAGCUGGAUGCAAGAUAGAUACUAUAUUUGGAAUUCUCGGGUGCCAA	0.24
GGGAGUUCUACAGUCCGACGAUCGCUGUCUUGGAGGUAAGUGGAAGUAGUGGGCCCUGCUUCUUUUCUUUGUAGCCUUCCGGCUACAUCCCCUUCCCAGUUGUGGACCAAUGCAUCUCUAGAGACAGAUACUAUGGAAUUCUCGGGUGCCAA	0.526
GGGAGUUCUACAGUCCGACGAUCCUUCUCUUACCAGAGCAUCUGUUUGCAGAGGUAACAUUACCUUCCCCAGCCACAGGUAUGUGGAAUACGGUGAGGAAAAAAAAAAUUAAAAAAAAAAUGCAAGCUGUCAGUGGAAUUCUCGGGUGCCAA	0.399
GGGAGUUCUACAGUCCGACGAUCGUGUUGUGUAUGGGCUGCUAAUUGUUAUGAAUAAAAUACCCAACCCUAGGCUGCAGAGAAGCCCGUCCAUUUGGUCUAACCUGAGUCUCUGCGCUACACCUCACAAGCACUGGAAUUCUCGGGUGCCAA	0.877
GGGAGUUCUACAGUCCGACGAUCAUAAUAGCUGGUAUGUAUCCAGCUCUUGCUAGGUGCUAGGUACUCAAAGUACAUGGCCUGAGUUCUCUUCUGCCUCCCACAGCAAAGUUGAGGCUGCACUGUAGAGACACUGGAAUUCUCGGGUGCCAA	0.328
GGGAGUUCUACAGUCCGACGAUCCACAGAGGCUCCUAAGAUACAUGAGACCUUUGCAGUGUUUUCUCUCCACCUUCUGAGACAGAGGGAAGCAAGGAAACAGGGGAGAAAAAAAAGAGUGAACAAAUUCAGUGUGGAAUUCUCGGGUGCCAA	0.742

Series 3 — target: CCNB2, cyclin fold, Cln2 fusion (human); technique: yeast growth competition, sequencing; sample: yeast; notes: weak parent motif; baseline: not given; direction: higher = stronger binding
Parent: CDAN1 docking peptide (human); RGARSQLFPPTEA
Change	normalised enrichment score
RGARSQLAPPTEA [F8A]	0.801
RGARSQAFPPTEA [L7A]	0.391
RGARSALFPPTEA [Q6A]	0.0665
RGARSQLFPPTAA [E12A]	0.195
RGARSQLFAPTEA [P9A]	0.563

Further values, each from its own experiment
Substance	target	test	test system	conditions	scale	endpoint	value
PhoQ, residues 284 288 289 292 302 303 SLANKL	PhoP, residues 12 14 15 18 19 SEGLL (Escherichia coli, UniProt P23836)	Sort-seq, item: YFP reporter	E. coli	PhoQ-PhoP variant library, with: 10 µM Mg2+	baseline: high Mg2+ state, higher = stronger signaling	fold induction	14.6
